Experimental data collected from several papers.
“And” joins repeats or separate records; there may be more than shown. Numbers after ± are the reported error.
MAL12: Alpha-glucosidase MAL12 (MAL12, Saccharomyces cerevisiae S288c, UniProt P53341)
ADRA2C: Alpha-2C adrenergic receptor (ADRA2C, Homo sapiens, UniProt P18825)

Compound | target or system | test | system | setting | how to read | quantity | result
Cn1cc(-c2cc(F)cc(N3CCn4c(cc5c4CCCC5)C3=O)c2CO)cc(Nc2ccc(N3CCN(C4COC4)CC3)cn2)c1=O | Mitogen-activated protein kinase kinase kinase 7, with TAB1 (MAP3K7, Homo sapiens, UniProt O43318) | kinase activity, inhibitor |  | 0.1 µM, SelectScreen profiling |  | inhibition | 12%
CN1CCN(c2nc(N)c3ccccc3n2)CC1 | Neuronal acetylcholine receptor; alpha4/beta2 (Homo sapiens, UniProt P17787+P43681) | radioligand binding, radioligand competition binding |  | 0.1 µM, mean of two | reference: control specific binding | inhibition | 1.9%
CCCN(CCC)[C@H]1CCc2c(F)ccc(O)c2C1 | Plasmodium falciparum |  | 7G8 |  |  | IC50 | 0.631 µM
CN1C(=O)/C(=N\Nc2ncc(-c3cc4ccccc4oc3=O)s2)c2cc(Cl)ccc21 | MAL12 | enzyme activity |  | 25 µM, added: pNPG |  | inhibition | 17.1% and 17.3%
CN(C(=O)n1cnc(-c2ccc[n+]([O-])c2)c1)C1CCCCC1 | DRD3 (Homo sapiens, UniProt P35462) | radioligand binding |  | 50 µM, added: [3H]spiperone |  | inhibition | 3%
CC(C)(C)OC(=O)N1CCN(C(=O)n2cc(-c3ccc(OC(F)(F)F)cc3)nn2)C(Cc2ccccc2)C1 (stereo not shown) | Diacylglycerol lipase-beta (Mus musculus, UniProt Q91WC9) | enzyme activity | N2a membrane proteome | 30 nM |  | inhibition | 88%
O=C(N/N=C/c1ccccc1O)c1cnccn1 | Gag-Pol polyprotein, integrase (gag-pol, Human immunodeficiency virus 1, UniProt P12497) | processing, 3', and strand transfer, inhibitor | HIV-1 | 100 µM |  | inhibition | no inhibition
Cc1ncc(C)n2nc(/C=C/c3nc(N4CCCC4)cc(N4CCOCC4)n3)nc12 | Na+/K+-ATPase | enzyme activity |  | 10 µM |  | inhibition | 6%
N#C/C(=C\c1ccc(O)c(O)c1)C(N)=S | F13A1 (Homo sapiens, UniProt P00488) | crosslinking activity |  | 15 µM, without DTT |  | inhibition | inhibited
CCc1cc(=O)[nH]c(-n2nc(C)cc2NC(=O)c2ccc(C)c(C)c2)n1 | ROCK1 (Homo sapiens, UniProt Q13464) | radiometric kinase |  | 10 µM |  | inhibition | no inhibition
C[C@@H](NC(=O)[C@@H](N)Cc1ccc(O)cc1)C(=O)NCC(=O)N[C@@H](Cc1ccccc1)C(=O)N(C)CCC[C@@]1(c2ccc(F)cc2)OCc2cc(C#N)ccc21 | ADRA2C |  |  | 10 µM |  | inhibition | < 50%
CC(C)N1CCC[C@H]1CNC(=O)c1cn(C2CCCC2)c(=O)c2c1c1ccccc1n2C | L-type calcium channel benzothiazepine site, rat | radioligand binding |  | 10 µM |  | inhibition | 41%
CN1CCN(c2cc(-c3ccncc3)c(-c3ccc4ccccc4c3)nn2)CC1 | CXCR3 (Homo sapiens, UniProt P49682) | antagonist, FLIPR |  | 10 µM |  | inhibition | 2.6%
Cn1cccc1-c1cccnc1 | CHRM4 (Homo sapiens, UniProt P08173) | binding |  | 50 µM |  | inhibition | -4.51%
O=C(Nc1cnccc1Cl)N1CCN(Cc2ccc3c(c2)OC(F)(F)O3)CC1 | GABAA receptor chloride channel, rat | binding |  | 10 µM, added: [3H]TBOB |  | inhibition | 19%
O=C1O[C@H]2[C@@H]3OC(=O)c4cc(O)c(O)c(O)c4-c4c(O)c(O)c5oc(=O)c6c(c(O)c(O)c7oc(=O)c4c5c76)-c4c(cc(O)c(O)c4O)C(=O)OC[C@H]3OC(O)[C@@H]2OC(=O)c2cc(O)c(O)c(O)c2-c2c1cc(O)c(O)c2O (mixture of isomers) | P4HB (Homo sapiens, UniProt P07237) | insulin reduction |  | 20 µM |  | inhibition | inhibited

Compound | target or system | test | system | setting | how to read | quantity | result
FC(F)(F)c1cccc(Nc2nc(NCCOc3ccccc3)nc3[nH]cnc23)c1 | Cyclin-dependent kinase 5, with p25 (CDK5, Homo sapiens, UniProt Q00535) | enzyme activity, inhibitor, Thermo Fisher kinase screening |  | 5 µM |  | inhibition | 8%
COc1cc(Nc2ncc(F)c(Nc3ccc4c(n3)NC(=O)C(C)(C)O4)n2)cc(OC)c1OC | CDK18 (Homo sapiens, UniProt Q07002) | binding, KINOMEscan |  | 10 µM, PCTK3 kinase |  | inhibition | 0%
O=C(O[C@@H]1Cc2c(O)cc(O)cc2O[C@@H]1c1cc(=O)c(O)c2c(O)c(O)cc([C@H]3Oc4cc(O)cc(O)c4C[C@H]3O)c2c1)c1cc(O)c(O)c(O)c1 | Protein disulfide-isomerase, a' domain (P4HB, Homo sapiens, UniProt P07237) | di-eosin-GSSG reductase activity | isolated a' domain | 20 µM |  | inhibition | inhibited
COCc1c(-c2cc3cc(C)cc(OC)c3s2)c2c(N)ncnn2c1CN1CCNC(=O)C1 | leukotriene C4 synthase | enzyme activity |  | 10 µM |  | inhibition | 1%
CN(CCN1CCC(OC(=O)Nc2ccccc2-c2ccccc2)CC1)C(=O)c1ccc(CN2CCC(C(N)=O)CC2)cc1 | rat P2X receptor | radioligand binding |  | 1 µM, added: [3H]α,β-MeATP 3.0 nM |  | inhibition | 14%
O=C(Nc1cccnn1)N1CCC(=Cc2cccc(Oc3ccc(C(F)(F)F)cn3)c2)CC1 | ADRA2C | binding |  | 50 µM, added: [3H]rauwolscine |  | inhibition | 87%
CC[C@H](C)[C@H](NC(=O)[C@@H](NC(=O)[C@H](N)Cc1ccccc1)C(C)C)C(=O)N[C@@H](C)C(N)=O | APP (Homo sapiens, UniProt P05067) | amyloid-beta aggregation, thioflavin T fluorescence |  | 2.0 µM, 48 h, added: 2 µM amyloid-beta |  | inhibition | 100%
COc1ccc2[nH]c3c(c2c1)CCN(C)CC3 | Chrna7 (Rattus norvegicus, UniProt Q05941) | ACh-evoked current, antagonist, two-electrode voltage clamp | Xenopus laevis oocytes | 10 µM, holding potential -120 mV, added: 100 µM acetylcholine |  | inhibition | 78.8 ± 5.6%
O=C(Nc1cccnn1)N1CCN([C@@H]2CCOc3cc(C(F)(F)F)ccc32)CC1 | Quinone reductase 2 (Mesocricetus auratus, UniProt A0ABM2YAB8) | binding |  | 20 µM, MT3 (ML-2) site |  | inhibition | 33%
CCc1ccc(N2C(=O)/C(=C3/C(=O)N(C)c4ccc(Cl)cc43)NC2=S)cc1 | MAL12 | enzyme activity |  | 200 µM, added: pNPG |  | inhibition | 61.8% and 61.9%
O=C1N=C(N2CCCCN2)S/C1=C\c1ccc(F)cc1O | rat benzodiazepine site | radioligand binding | rat cerebral cortex | 10 µM, added: [3H]flunitrazepam |  | inhibition | < 10%
COc1ccc(N2C(=O)N(c3c(C)cccc3Cl)Cc3cnc(Nc4ccc(C5CCN(C)CC5)cc4OC)nc32)nc1 | TNK2 (Homo sapiens, UniProt Q07912) | kinase activity |  | 0.5 µM |  | inhibition | 98%
CN(C)CC[C@@H](c1ccc(Cl)cc1)c1ccccn1 | Plasmodium falciparum |  | 7G8 |  |  | IC50 | 5.01 µM
C[C@H]1O[C@H](O[C@H]2[C@H](O)[C@@H](O)[C@@H](O[C@H]3[C@H](O)[C@@H](O)C(O)O[C@@H]3CO)O[C@@H]2CO)[C@H](O)[C@@H](O)[C@@H]1N[C@H]1C=C(CO)[C@@H](O)[C@H](O)[C@H]1O (stereo partly shown) | MAL12 | enzyme activity |  | 774.47 µM, added: pNPG |  | inhibition | 63.8% and 63.7%
O=C(N1CCC2(CC1)C[C@H](CN1CCCCS1(=O)=O)CCO2)C1(c2ccccc2)CCCC1 | DDX3X (Homo sapiens, UniProt O00571) | ATPase activity |  | 50 µM |  | inhibition | 30%
